Assay results gathered from unrelated publications.
Each numbered part is a random draw from the data of one study; scales do not carry over between parts.
Chain of UniProt P07949 (whole entry, looked up): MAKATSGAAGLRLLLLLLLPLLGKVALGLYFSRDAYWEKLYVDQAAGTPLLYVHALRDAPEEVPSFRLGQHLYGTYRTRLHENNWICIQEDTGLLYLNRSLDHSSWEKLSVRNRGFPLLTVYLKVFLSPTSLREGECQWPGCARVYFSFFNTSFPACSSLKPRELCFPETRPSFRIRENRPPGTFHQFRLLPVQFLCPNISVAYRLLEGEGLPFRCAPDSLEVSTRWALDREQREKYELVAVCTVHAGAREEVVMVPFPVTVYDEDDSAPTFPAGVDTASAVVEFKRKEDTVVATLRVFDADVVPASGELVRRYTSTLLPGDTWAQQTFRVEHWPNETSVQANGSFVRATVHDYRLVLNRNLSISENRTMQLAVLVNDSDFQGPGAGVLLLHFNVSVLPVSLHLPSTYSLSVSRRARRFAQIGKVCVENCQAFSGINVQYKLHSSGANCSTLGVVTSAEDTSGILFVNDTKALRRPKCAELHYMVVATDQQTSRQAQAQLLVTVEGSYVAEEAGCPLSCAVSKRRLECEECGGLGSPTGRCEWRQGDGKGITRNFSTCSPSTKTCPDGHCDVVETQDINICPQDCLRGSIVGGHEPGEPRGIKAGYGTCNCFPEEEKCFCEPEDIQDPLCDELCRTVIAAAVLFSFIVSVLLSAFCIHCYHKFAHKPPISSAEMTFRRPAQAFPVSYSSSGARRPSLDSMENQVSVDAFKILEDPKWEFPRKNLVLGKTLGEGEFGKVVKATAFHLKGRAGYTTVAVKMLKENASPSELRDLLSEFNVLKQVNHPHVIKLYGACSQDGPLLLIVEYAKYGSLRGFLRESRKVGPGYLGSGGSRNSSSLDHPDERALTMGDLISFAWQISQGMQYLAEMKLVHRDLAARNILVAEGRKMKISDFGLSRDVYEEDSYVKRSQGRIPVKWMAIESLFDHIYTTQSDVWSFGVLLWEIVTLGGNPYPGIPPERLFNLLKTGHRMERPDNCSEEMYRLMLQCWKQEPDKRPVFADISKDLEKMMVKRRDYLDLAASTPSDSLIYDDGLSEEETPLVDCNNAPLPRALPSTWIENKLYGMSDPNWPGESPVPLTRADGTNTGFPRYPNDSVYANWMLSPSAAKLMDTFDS

Sample 1 — method: protein-binding microarray; molecule type: hairpin DNA; matrix: in vitro; tested at: not given; baseline: not given; reading: higher = stronger binding; endpoint: median fluorescence
Target: Cellular tumor antigen p53, full length (TP53, Homo sapiens, UniProt P04637, residues 1-393)
Notes: whole hairpin DNA, median over replicate spots
Strand = CGGACATGCCCGGGCATGTCTCCTGACATGCCCGGGCATGTCCGACACTC (5mC at 10); value = 19500 a.u.
Strand = CGGACACGCCCGGGCATGTCTCCTGACATGCCCGGGCGTGTCCGACACTC (5mC at 7); value = 16700 a.u.
Strand = CCACACGTGCGGGCATGCCTTCCTAGGCATGCCCGCACGTGTGGACACTC (5mC at 34); value = 9780 a.u.
Strand = CGGACATGCGCGGGCATGTCTCCTGACATGCCCGCGCATGTCCGACACTC (5mC at 9 35); value = 14500 a.u.
Strand = CGGACATCGCCGGGCATGTCTCCTGACATGCCCGGCGATGTCCGACACTC (5mC at 36); value = 13000 a.u.
Strand = CCACACGTGGTAGCATGCCTTCCTAGGCATGCTACCACGTGTGGACACTC; value = 6630 a.u.
Strand = CGGACATGCCCGCGCATGTCTCCTGACATGCGCGGGCATGTCCGACACTC (5mC at 13 31); value = 12200 a.u.
Strand = CCACACGGGGTGGCATGCCTTCCTAGGCATGCCACCCCGTGTGGACACTC; value = 6470 a.u.

Sample 2 — method: RNAcompete; molecule type: RNA; matrix: in vitro; tested at: 20 nM; notes: 7-mer, probes averaged, single round; baseline: mean of 7-mers; reading: higher = stronger binding; endpoint: 7-mer Z-score
Target: PABPC1L2, full length, GST fusion (mouse, UniProt A0ABA7IW68)
Residues (chain): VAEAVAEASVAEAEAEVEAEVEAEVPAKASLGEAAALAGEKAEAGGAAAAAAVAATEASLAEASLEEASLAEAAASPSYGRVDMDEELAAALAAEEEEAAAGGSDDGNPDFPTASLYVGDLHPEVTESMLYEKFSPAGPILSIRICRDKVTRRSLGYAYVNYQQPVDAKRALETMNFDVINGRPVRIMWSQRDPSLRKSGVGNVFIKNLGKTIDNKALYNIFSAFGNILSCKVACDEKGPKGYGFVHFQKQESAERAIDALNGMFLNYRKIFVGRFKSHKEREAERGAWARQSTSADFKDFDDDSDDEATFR
Strand = CUUCUUG; value = -0.4
Strand = GGACCGU; value = -0.113
Strand = AGUAUCU; value = -0.142
Strand = UCAUGUC; value = -0.307
Strand = UCGUGAA; value = -0.253
Strand = GAGAGGU; value = -0.0736
Strand = GAGCUAU; value = -0.148
Strand = CUAACGA; value = -0.0953

Sample 3 — method: RNA Bind-n-Seq; molecule type: RNA; matrix: in vitro; tested at: not given; baseline: input RNA pool; reading: higher = stronger binding; endpoint: bound/input enrichment
Target: RING finger protein unkempt homolog, zinc fingers 1-6, GST-SBP tag (UNK, Homo sapiens, UniProt Q9C0B0, residues 30-357)
Notes: RNA with constant flanks, human-mouse chimeric sites, ends assumed
Constant ends, left off below: GGGAGUUCUACAGUCCGACGAUC … CAACAGAGGAUUGAGCAUCA
Construct (chain): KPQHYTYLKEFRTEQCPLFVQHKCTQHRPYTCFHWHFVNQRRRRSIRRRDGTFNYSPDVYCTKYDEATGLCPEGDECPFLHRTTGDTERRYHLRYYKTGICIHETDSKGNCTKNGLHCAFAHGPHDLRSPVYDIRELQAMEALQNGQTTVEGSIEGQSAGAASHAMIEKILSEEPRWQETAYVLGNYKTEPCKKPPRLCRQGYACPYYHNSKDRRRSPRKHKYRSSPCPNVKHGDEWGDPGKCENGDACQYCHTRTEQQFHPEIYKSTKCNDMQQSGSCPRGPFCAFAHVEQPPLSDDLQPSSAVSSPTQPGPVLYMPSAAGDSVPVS
Strand = GUGCCCUCCUUCUCGCUGCGGAGCCCGAGCUGGGAACACCCCUUCCGCUGGUACCCUGCACACAGCCGCCUCUUCGAUCAAGCUUUCGGGGUGCCCCGGUUGCCCGAUGAGUGGUCGCAG; value = 0.0889 ratio
Strand = AACUUCGUGCAUCGGUUUCCCUUUGUAGCUGUUUCAAUUGGCUUCCUUGUGAAUAAAAAGAUAGAAUUUGGAAUUGUGUACAGCUGUGUGGAAGAUAAGAUGUACACUGCCAGAAAAGGG; value = 2.44 ratio
Strand = UGACAAGGGCACUGCAGAGCCAUGCCUUUCUUGGACAUACAGAAAAAGCUGGGCAUCAGCCUGGACCGGCACUUUAUGUUCCUAAGCGCAGAACAGCCCUACAAGAUCGCCGCUCGGUGC; value = 0.078 ratio
Strand = AGUGUGCAGGAAUUCAUGACCUUUACAAGUCAACUGAUUGUGGAACGCUCGGGGAAAGGCAGCAGAGCUUCUGUCAAAGAACAAGAGUAUCUUUGCCACGUCUACGUCCGGAAUGAUAGU; value = 0.137 ratio
Strand = GAUAAGAAAAGCUUGUUGGAGACCCGCUUGCAUGUCACUGGUAGAGACCUGAGGUGUAAAAUAGCUGAAACUUUCGGAUUUCAAGAAAAUUACAUCAAGAUCGUAAUAAAUAAGAAGCAG; value = 0.49 ratio
Strand = ACUCAGAGAUCCACCUCCCAAAGUGCUGGGAGUAAAGGUGUGGCCACUCAAUUCUCCUUGAUGGAUAUAUAUUUUUUUUAAUAUGAAUCUUCCUGUUCGUCCAGGGAAGAAAGAUUUGUU; value = 0.479 ratio
Strand = UUGAAAACUGAUUCAAGUAAGUUUGAGUAUCACAAUGUUAGCUUUCUAAUUCCAUAAAGAUAGUUUUUUUUUACAGUUUAUAAUCUGCAAUCCAUCAAGCGCCAUUUGUAAAGAGCAACU; value = 19.5 ratio
Strand = GGAAGUACAAUGAUGGAGAUUGAUGGUGACAAAGGCAAACAAGGCGGGCCCACCUACUACAUAGACACUAAUGCUCUCCGCGUGCCCAGGGAGAACAUGGAGGCCAUCUCACCACUCAAG; value = 0.571 ratio

Single results of other studies
SMILES = CC(C)c1nn(-c2c(Cl)cccc2Cl)c2nc(Cc3ccc(OCCO)cc3)[nH]c(=O)c12; target = Proto-oncogene tyrosine-protein kinase receptor Ret (RET, Homo sapiens, UniProt P07949); observed = enzyme activity; mode = inhibitor; tested at = 0.5 µM; baseline = control; endpoint = remaining activity; value = 97.5%

Repeated from above (sample 2):
Strand = CUUCUUG; value = -0.4
Strand = GGACCGU; value = -0.113
Strand = AGUAUCU; value = -0.142
